Measured values collected from several papers.
Lines come from different studies, so protocols differ. ± marks the error that the study gave.
UniProt P21554, sequence (whole entry, unmodified, looked up): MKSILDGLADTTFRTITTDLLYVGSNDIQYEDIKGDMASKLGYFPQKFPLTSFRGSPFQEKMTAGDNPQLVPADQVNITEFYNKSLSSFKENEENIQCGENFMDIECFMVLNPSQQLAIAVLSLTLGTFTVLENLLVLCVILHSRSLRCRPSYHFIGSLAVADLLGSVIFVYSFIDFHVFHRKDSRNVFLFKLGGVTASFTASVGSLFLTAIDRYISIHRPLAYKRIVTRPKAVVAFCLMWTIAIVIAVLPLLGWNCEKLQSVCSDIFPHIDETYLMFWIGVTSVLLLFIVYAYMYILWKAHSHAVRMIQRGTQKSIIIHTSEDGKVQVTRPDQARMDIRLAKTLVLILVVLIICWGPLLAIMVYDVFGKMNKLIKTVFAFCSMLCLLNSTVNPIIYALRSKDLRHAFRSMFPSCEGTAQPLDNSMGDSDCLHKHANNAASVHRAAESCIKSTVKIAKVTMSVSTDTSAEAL
UniProt P34972, sequence (whole entry, unmodified, looked up): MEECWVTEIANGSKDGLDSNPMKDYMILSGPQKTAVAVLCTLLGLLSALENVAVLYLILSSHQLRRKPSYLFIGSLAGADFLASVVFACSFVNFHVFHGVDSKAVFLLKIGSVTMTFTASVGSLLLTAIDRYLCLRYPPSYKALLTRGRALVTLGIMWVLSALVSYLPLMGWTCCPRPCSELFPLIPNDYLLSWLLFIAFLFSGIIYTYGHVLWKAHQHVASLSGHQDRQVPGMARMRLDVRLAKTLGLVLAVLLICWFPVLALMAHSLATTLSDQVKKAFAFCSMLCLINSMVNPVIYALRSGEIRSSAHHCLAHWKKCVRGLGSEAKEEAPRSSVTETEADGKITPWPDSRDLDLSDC
UniProt P14867, sequence (whole entry, looked up): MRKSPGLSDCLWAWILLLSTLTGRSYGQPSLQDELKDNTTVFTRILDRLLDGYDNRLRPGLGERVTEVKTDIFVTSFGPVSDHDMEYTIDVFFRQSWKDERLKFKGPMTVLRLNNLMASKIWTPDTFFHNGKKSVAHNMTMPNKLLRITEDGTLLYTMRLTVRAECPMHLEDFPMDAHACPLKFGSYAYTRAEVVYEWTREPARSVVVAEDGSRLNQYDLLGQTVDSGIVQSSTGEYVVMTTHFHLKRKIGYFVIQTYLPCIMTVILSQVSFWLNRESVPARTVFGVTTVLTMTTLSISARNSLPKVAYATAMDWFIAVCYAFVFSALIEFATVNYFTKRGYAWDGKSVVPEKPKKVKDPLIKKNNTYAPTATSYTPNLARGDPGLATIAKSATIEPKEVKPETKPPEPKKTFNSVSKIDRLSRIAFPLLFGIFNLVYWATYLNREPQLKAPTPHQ
UniProt P18507, sequence (whole entry, looked up): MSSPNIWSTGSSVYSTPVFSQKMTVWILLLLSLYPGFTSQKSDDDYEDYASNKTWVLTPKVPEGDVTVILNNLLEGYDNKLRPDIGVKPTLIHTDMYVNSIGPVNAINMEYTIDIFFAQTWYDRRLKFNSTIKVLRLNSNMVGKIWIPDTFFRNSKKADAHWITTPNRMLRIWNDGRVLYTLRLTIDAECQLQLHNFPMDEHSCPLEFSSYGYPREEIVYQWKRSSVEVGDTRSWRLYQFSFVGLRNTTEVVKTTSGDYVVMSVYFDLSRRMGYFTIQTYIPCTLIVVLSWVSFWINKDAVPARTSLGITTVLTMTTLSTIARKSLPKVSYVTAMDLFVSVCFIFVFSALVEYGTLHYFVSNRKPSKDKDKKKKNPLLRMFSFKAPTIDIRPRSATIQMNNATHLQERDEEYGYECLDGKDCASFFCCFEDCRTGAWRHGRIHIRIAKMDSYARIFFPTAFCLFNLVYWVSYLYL
UniProt P47870, sequence (whole entry, looked up): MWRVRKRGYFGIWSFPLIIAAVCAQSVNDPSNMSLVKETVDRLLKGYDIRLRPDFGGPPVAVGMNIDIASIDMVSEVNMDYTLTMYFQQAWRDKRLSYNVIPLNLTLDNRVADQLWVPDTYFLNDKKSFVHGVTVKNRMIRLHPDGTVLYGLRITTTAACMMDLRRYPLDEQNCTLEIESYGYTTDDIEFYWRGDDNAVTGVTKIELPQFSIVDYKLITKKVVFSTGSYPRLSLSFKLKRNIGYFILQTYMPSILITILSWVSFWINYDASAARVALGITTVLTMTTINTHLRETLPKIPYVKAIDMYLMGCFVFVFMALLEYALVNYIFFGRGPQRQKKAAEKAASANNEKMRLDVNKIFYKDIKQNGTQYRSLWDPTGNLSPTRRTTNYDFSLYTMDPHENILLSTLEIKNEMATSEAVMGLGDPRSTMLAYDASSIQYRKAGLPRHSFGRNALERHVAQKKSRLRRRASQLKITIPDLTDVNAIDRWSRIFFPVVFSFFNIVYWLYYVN
UniProt Q62968, sequence (whole entry, looked up): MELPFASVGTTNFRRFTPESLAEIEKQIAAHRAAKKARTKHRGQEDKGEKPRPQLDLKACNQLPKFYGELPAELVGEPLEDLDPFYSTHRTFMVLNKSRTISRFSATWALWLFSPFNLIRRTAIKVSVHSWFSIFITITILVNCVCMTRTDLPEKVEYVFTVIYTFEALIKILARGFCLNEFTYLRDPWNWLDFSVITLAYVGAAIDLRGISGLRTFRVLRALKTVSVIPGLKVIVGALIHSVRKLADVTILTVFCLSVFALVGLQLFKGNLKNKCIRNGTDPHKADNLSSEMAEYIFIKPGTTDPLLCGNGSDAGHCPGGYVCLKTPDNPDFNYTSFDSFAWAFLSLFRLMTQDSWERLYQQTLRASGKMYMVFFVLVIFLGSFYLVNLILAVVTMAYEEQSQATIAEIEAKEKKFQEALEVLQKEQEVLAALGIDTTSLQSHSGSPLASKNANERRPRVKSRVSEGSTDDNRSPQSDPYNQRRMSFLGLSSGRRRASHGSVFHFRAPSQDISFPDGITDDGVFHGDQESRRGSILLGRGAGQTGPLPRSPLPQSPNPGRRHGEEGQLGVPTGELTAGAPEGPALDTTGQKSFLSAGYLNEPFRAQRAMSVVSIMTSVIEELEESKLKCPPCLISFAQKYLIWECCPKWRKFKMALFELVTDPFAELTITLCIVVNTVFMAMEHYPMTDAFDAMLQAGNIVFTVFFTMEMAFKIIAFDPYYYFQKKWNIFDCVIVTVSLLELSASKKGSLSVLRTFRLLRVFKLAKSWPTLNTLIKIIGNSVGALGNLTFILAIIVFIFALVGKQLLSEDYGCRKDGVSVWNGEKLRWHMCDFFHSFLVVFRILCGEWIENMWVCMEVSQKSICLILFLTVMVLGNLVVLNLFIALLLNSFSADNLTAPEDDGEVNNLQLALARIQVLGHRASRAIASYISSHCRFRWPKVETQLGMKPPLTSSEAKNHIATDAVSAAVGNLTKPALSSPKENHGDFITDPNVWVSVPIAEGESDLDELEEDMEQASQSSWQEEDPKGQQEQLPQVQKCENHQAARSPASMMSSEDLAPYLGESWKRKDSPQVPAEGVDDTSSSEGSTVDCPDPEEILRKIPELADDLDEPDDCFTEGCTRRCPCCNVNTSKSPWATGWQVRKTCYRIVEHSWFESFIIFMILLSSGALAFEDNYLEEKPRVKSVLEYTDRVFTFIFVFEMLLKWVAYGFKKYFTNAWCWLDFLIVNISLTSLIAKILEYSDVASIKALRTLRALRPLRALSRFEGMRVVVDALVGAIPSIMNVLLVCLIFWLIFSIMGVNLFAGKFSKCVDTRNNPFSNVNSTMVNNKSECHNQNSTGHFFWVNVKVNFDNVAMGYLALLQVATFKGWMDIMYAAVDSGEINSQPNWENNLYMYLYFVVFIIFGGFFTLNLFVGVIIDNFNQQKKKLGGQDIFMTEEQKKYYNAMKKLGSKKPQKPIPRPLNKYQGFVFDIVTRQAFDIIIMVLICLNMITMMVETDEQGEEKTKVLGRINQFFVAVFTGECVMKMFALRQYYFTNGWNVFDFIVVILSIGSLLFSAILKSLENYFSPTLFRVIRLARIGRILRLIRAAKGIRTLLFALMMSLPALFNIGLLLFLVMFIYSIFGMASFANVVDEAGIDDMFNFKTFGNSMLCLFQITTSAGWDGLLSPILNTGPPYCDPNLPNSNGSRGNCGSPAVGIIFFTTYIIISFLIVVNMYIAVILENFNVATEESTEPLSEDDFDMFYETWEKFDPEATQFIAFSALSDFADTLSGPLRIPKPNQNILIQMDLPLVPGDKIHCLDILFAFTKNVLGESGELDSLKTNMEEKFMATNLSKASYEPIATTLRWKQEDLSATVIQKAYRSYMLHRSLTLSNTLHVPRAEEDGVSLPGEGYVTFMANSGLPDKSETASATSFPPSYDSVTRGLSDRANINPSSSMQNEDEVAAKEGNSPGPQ
UniProt Q9NYY3, sequence (whole entry, looked up): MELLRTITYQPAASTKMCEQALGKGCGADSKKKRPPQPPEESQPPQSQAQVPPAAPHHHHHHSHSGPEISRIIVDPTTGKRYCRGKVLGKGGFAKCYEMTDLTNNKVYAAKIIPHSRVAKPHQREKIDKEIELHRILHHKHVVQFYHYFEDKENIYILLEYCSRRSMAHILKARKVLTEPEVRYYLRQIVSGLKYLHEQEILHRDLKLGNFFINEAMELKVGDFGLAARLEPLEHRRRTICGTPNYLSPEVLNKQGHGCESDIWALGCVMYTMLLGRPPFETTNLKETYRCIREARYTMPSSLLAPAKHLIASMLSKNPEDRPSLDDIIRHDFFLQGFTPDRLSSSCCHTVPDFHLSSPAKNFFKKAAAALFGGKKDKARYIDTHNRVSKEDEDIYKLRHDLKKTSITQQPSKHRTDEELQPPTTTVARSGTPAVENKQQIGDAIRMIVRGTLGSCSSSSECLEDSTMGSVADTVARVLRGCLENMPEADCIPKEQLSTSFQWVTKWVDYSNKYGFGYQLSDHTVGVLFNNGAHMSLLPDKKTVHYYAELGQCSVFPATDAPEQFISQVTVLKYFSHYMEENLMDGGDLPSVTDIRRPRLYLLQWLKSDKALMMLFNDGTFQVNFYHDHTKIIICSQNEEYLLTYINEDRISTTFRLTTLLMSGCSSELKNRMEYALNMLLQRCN

SMILES | tested on | assay | system | setting | how to read | endpoint | result
CCCCCn1cc(C(=O)c2cccc3ccccc23)c2ccccc21 | Cannabinoid receptor 1 (CNR1, Homo sapiens, UniProt P21554, L359V) | Gαi1 engagement, agonist, BRET |  |  | relative to: reference agonist at wild-type CB1 | Emax | 127 ± 3.4%
CS(=O)(=O)NC(=O)c1ccc(NC(=O)c2cccc(CC3CCCCC3)n2)c(Cc2ccccc2)c1 | Capsid scaffolding protein, protease domain (Human herpesvirus 8 type P, UniProt Q2HRB6, R82Q) | enzyme activity, inhibitor |  | pH 8 | relative to: mutant over wild type | IC50 ratio | 3 to 4 fold
CCN(Cc1ccccc1)C(=O)CCc1nc(CN2CCN(C(=O)Cc3ccc(OC)c(OC)c3)CC2)no1 | Sodium channel protein type 10 subunit alpha (Scn10a, Rattus norvegicus, UniProt Q62968) | whole-cell patch clamp | rat DRG neurons | 100 nM |  | V1/2 of activation | -17.5 ± 1.11 mV
CC(C)[C@H](N)C(=O)N[C@@H](Cc1ccc(O)cc1)C(=O)N[C@@H](CCCCN)C(=O)N[C@H](C(=O)N[C@@H](CCCCN)C(=O)N[C@H](C(=O)N[C@@H](CCCCN)C(=O)N[C@H](C(=O)N[C@@H](CCCCN)C(=O)N[C@H](C(=O)N[C@@H](CCCCN)C(=O)N[C@H](C(=O)N[C@@H](CCCCN)C(=O)N[C@H](C(=O)N[C@@H](CCCCN)C(=O)N[C@H](C(=O)N[C@@H](CCCCN)C(=O)N[C@H](C(=O)O)[C@@H](C)O)C(C)C)[C@@H](C)O)C(C)C)[C@@H](C)O)C(C)C)[C@@H](C)O)C(C)C |  | binding, SPR two-state model | rVλ6Wil fibrils | 300 nM |  | ka2 | 0.007 s⁻¹
CCCCCn1cc(C(=O)c2ccc3ccccc3c2)c2ccccc21 | Cannabinoid receptor 1 (CNR1, Homo sapiens, UniProt P21554) | β-arrestin recruitment, agonist, BRET | HEK-293T |  |  | Emax | 98.4%
CSCC[C@H](NC(=O)[C@H](CCSC)NC(=O)[C@H](CCSC)NC(=O)[C@@H](N)CO)C(=O)N[C@@H](CS)C(=O)O | Formylglycine-generating enzyme (Mycobacterium tuberculosis, UniProt I6Y8I5) | enzyme activity, inhibitor, LC-MS |  | 100 µM, 10 min, with: pentapeptide substrate |  | inhibition | > 50%
NCCCC[C@H](NC(=O)CNC(=O)CNC(=O)[C@H](CCCCN)NC(=O)CNC(=O)CNC(=O)CNC(=O)[C@H](CCCCN)NC(=O)CNC(=O)CNC(=O)[C@H](CCCCN)NC(=O)CNC(=O)CNC(=O)CNC(=O)[C@H](CCCCN)NC(=O)CNC(=O)CNC(=O)[C@H](CCCCN)NC(=O)CNC(=O)CNC(=O)CNC(=O)[C@H](CCCCN)NC(=O)CNC(=O)CNC(=O)[C@H](CCCCN)NC(=O)[C@H](CO)NC(=O)[C@H](Cc1ccc(O)cc1)NC(=O)CNC(=O)CNC(=O)CN)C(=O)NCC(=O)O |  | binding, SPR Langmuir fit | rVλ6Wil fibrils | 300 nM, pH 7.4 |  | association rate constant | 77000 M⁻¹ s⁻¹
CC(=O)NC(Cc1ccc(Br)c(Cl)c1)C(=O)N[C@@H](C)C(=O)N1CCC[C@H]1C(=O)N1CCC[C@H]1C(=O)N[C@@H](CCC(=O)O)C(=O)N[C@@H](Cc1c[nH]cn1)C(=O)N[C@@H](CO)C(=O)N[C@H](C(=O)N[C@@H](C)C(N)=O)[C@@H](C)OP(=O)(O)O (some centres unmarked) | Serine/threonine-protein kinase PLK2 (PLK2, Homo sapiens, UniProt Q9NYY3) |  |  | 10 µM |  | inhibition | 4.09 ± 0.23%
C[C@H](NC(=O)[C@H](CCC(N)=O)NC(=O)[C@H](CCCCN)NC(=O)[C@H](C)NC(=O)[C@@H]1CCCN1C(=O)[C@H](C)NC(=O)[C@H](CCCCN)NC(=O)[C@H](CCC(N)=O)NC(=O)[C@H](C)NC(=O)[C@H](CCCCN)NC(=O)[C@H](CCC(N)=O)NC(=O)[C@@H]1CCCN1C(=O)[C@H](CCC(N)=O)NC(=O)[C@H](CCCCN)NC(=O)[C@H](C)NC(=O)[C@H](CCC(N)=O)NC(=O)[C@H](CCCCN)NC(=O)[C@H](C)NC(=O)[C@@H]1CCCN1C(=O)[C@H](C)NC(=O)[C@H](CCCCN)NC(=O)[C@H](CCC(N)=O)NC(=O)[C@H](C)NC(=O)[C@H](CCCCN)NC(=O)[C@H](CO)NC(=O)[C@H](Cc1ccc(O)cc1)NC(=O)CNC(=O)CNC(=O)CN)C(=O)N[C@@H](CCCCN)C(=O)N[C@@H](CCC(N)=O)C(=O)O |  | binding, SPR Langmuir fit | rVλ6Wil fibrils | 300 nM, pH 7.4 |  | association rate constant | 83000 M⁻¹ s⁻¹
CCCCCn1cc(C(=O)c2cccc3c2CC(C)(C)C3)c2ccccc21 | Cannabinoid receptor 2 (CNR2, Homo sapiens, UniProt P34972) | Gαi1 engagement, agonist, BRET | HEK293T |  | relative to: reference agonist | Emax | 78.7 ± 8.5%
C[C@@H](NC(=O)[C@@H](CCC(N)=O)NC(=O)[C@@H](C)NC(=O)[C@@H](CCCCN)NC(=O)[C@@H](CCC(N)=O)NC(=O)[C@@H](C)NC(=O)[C@@H](CCCCN)NC(=O)[C@@H](CCC(N)=O)NC(=O)[C@@H](C)NC(=O)[C@@H](CCC(N)=O)NC(=O)[C@@H](CCCCN)NC(=O)[C@@H](C)NC(=O)[C@@H](CCC(N)=O)NC(=O)[C@@H](CCCCN)NC(=O)[C@@H](C)NC(=O)[C@@H](CCC(N)=O)NC(=O)[C@@H](C)NC(=O)[C@@H](CCCCN)NC(=O)[C@@H](CCC(N)=O)NC(=O)[C@@H](C)NC(=O)[C@@H](CCCCN)NC(=O)[C@@H](CO)NC(=O)[C@@H](Cc1ccc(O)cc1)NC(=O)CNC(=O)CNC(=O)CN)C(=O)N[C@H](CCCCN)C(=O)N[C@H](CCC(N)=O)C(=O)N[C@H](C)C(=O)N[C@H](CCCCN)C(=O)N[C@H](CCC(N)=O)C(=O)O |  | binding, SPR two-state model | rVλ6Wil fibrils | 300 nM |  | ka2 | 0.0074 s⁻¹
CCCCCn1cc(C(=O)c2ccc3c(c2)CC(C)(C)C3)c2ccccc21 | Cannabinoid receptor 2 (CNR2, Homo sapiens, UniProt P34972, V261L) | Gαi1 engagement, agonist, BRET |  |  | relative to: reference agonist at wild-type CB2 | Emax | 32.4 ± 12.5%
C=C(C)C1C2OC(=O)C1C1(O)CC3OC34C(=O)OC2C14C (centres unmarked) | GABA-A receptor; alpha-1/beta-2/gamma-2 (Homo sapiens, UniProt P14867+P18507+P47870) | GABA-induced current, antagonist, two-electrode voltage clamp | Xenopus oocytes | with: GABA at EC50 |  | Hill coefficient | 0.8 ± 0.11
CN1CCc2cc(O)cc3c2[C@H]1Cc1ccc(O)c(O)c1-3 | Carbamate kinase (Giardia intestinalis, UniProt A8BB85) | enzyme activity, inhibitor, luminescence, ATP detection | Giardia lamblia |  |  | maximal inhibition | 90.7%

For quick reference, copied from above:
SMILES | tested on | assay | system | setting | how to read | endpoint | result
CCCCCn1cc(C(=O)c2ccc3c(c2)CC(C)(C)C3)c2ccccc21 | Cannabinoid receptor 2 (CNR2, Homo sapiens, UniProt P34972, V261L) | Gαi1 engagement, agonist, BRET |  |  | relative to: reference agonist at wild-type CB2 | Emax | 32.4 ± 12.5%
CSCC[C@H](NC(=O)[C@H](CCSC)NC(=O)[C@H](CCSC)NC(=O)[C@@H](N)CO)C(=O)N[C@@H](CS)C(=O)O | Formylglycine-generating enzyme (Mycobacterium tuberculosis, UniProt I6Y8I5) | enzyme activity, inhibitor, LC-MS |  | 100 µM, 10 min, with: pentapeptide substrate |  | inhibition | > 50%
